Measurements collected from several papers.
Compare with care: the assays were run in different laboratories. ± marks the error that the study gave.
C3: C3 996-1303 (Homo sapiens, UniProt P01024)
Sequence of UniProt P01024 (whole entry, looked up): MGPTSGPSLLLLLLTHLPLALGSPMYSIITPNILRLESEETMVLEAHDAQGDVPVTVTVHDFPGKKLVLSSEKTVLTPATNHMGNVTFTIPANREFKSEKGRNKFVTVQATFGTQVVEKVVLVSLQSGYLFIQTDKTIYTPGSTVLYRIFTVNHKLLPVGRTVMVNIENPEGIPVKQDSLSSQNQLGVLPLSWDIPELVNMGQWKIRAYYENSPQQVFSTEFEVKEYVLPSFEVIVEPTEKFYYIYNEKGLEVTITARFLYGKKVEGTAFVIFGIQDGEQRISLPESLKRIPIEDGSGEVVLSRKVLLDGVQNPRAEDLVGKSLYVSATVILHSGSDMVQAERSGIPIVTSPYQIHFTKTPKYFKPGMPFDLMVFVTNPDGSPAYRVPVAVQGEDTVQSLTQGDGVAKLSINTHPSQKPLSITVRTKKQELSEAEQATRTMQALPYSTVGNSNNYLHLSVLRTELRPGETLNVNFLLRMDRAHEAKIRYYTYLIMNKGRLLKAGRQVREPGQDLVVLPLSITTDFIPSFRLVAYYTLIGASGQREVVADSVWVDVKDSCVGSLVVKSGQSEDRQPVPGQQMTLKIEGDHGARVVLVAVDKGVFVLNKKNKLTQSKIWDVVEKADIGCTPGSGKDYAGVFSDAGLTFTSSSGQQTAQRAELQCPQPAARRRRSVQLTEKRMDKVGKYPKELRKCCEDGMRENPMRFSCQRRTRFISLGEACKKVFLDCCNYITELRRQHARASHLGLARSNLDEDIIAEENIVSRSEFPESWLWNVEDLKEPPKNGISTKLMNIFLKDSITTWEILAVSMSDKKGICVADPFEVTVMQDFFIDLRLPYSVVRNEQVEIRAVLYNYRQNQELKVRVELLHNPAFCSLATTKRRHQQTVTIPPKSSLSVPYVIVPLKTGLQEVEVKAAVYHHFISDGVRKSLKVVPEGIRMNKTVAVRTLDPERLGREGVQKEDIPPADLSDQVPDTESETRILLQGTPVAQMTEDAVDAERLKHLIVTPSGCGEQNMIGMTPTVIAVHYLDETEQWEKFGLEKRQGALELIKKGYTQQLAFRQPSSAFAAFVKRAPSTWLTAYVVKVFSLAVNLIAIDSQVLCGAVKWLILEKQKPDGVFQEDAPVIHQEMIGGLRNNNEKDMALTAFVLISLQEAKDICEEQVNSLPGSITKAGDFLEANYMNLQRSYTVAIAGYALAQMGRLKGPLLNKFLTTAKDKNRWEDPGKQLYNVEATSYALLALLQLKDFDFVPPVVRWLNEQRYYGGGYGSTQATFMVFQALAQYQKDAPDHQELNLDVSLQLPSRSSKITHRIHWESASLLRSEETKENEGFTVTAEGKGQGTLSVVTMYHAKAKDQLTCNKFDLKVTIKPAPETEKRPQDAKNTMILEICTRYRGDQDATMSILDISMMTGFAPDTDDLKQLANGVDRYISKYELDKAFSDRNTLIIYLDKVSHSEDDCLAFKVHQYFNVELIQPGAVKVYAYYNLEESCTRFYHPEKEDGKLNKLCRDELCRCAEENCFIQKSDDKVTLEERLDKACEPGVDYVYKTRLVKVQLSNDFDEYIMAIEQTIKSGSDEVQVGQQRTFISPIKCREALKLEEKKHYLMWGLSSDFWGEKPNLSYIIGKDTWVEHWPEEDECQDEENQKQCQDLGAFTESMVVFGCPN
B1: UBP10 (Saccharomyces cerevisiae, UniProt P53874); chain MTTQESIKPLVDRILSNPLQFNAAMISNKSNNNDTSAAPENSSYIVIGKQHNNNSNSTAIAATAESKQIKENNLIDRPNGKKTNTVPKSMAEALLLYTSKNDKDAADATGAKKSAELSTELSTEPPSSSSEDDKVGKEEEEEGEIFHEARDYVEPRKASLKERDNADKGDGEDIGEDIGEDIGEDIGEDIGEDIGENLGSPLATIDDSSNENEKEKRKELSTSISSDDEIEDDEDEDDMDYDSSAMEKELPEEEENDSSSKISEGEKKSLYQDLMENSTVEVNRYEPVNNTKENGNRNPKGEEEEEEEEELKHKSRSITPPVTISNLSNFYQFNENINDRGSLNSTRIVKNWGDKFTNLKPRGLLNHGVTCYTNAAVQAMLHIPSIQHYLFDILMGKYDSTISKNSVSYTLAETSKKMWLPVSKNPRKNVSASYINPKHLISRLDDINCMMSEWQQEDSHEYFMSLMSRLQEDSVPKGHKLIESIIYDIFGGLLKQIVTCKSCGSISKTEQPFYDLSLHLKGKKKLDPNSDLSSDSINGTSATTSTTTSNAATKPSLSSSSSVNLNNGSPFAAASDLSSANRRFSIEKSIKDFFNPELIKVDKEQKGYVCEKCHKTTNAVKHSSILRAPETLLVHLKKFRFNGTSSSKMKQAVSYPMFLDLTEYCESKELPVKYQLLSVVVHEGRSLSSGHYIAHCKQPDGSWATYDDEYINIISERDVLKEPNAYYLLYTRLTPKSVPLPLAKSAMATGNVTSKSKQEQAVNEPNNRPLKINSKKNNRKKWKKNKKRKFTK
B2: CFH domains 1108-1231 R1210C (Homo sapiens, UniProt P08603); sequence looked up; chain KCGPPPPIDNGDITSFPLSVYAPASSVEYQCQNLYQLEGNKRITCRNGQWSEPPKCLHPCVISREIMENYNIALRWTAKQKLYSRTGESVEFVCKRGYRLSSCSHTLRTTCWDGKLEYPTCAKR
B3: C1S 438-688 S632A (Homo sapiens, UniProt P09871); chain IIGGSDADIKNFPWQVFFDNPWAGGALINEYWVLTAAHVVEGNREPTMYVGSTSVQTSRLAKSKMLTPEHVFIHPGWKLLEVPEGRTNFDNDIALVRLKDPVKMGPTVSPICLPGTSSDYNLMDGDLGLISGWGRTEKRDRAVRLKAARLPVAPLRKCKEVKVEKPTADAEAYVFTPNMICAGGEKGMDSCKGDAGGAFAVQDPNDKTKFYAAGLVSWGPQCGTYGLYTRVKNYVDWIMKTMQENSTPRED
B4: SSC1/SSC3 chimeric SBD; chain TPLSLGIETLGGVFTRLIPRNTTIPTKKSQIFSTAAAGQTSVEIRVFQGERELVRDNKLIGNFTLAGIPPAPKGVPQIEVTFDIDADGIINVSARDKATNKDSSITVAGSSGLSENEIEQMVNDAEKFKSQDEARKQAIETANKADQLANDTENSLKEFEGKVDKAEAQKVRDQITSLKELVSRSQAGDEVNDDDVGTKIDNLRTSSMKLFEQLYKNDSNNNNNNNGNNAESGETKQ
B5: PUX6 269-435 (Arabidopsis thaliana, UniProt F4IXN6); chain VTYTVTIWRNGFTVDDDPFKSLDDPENAAFLEYMPEDNKFGVPTTTRSTSCSSQTHQELQTLAGSESTSTEPPLTTTQPPSMSSLVVDPAAPTTSIQLILADSTRIVTQFNTHHTIRDIRCFIDTSRPDGSKDYQLLIMGSPPTPLSDFDQTIEKAGIANSVLVQKF
B6: PLXND1 1553-1678 S1614V/T1615A (Homo sapiens, UniProt Q9Y4D7); chain AKPRNLNVSFQGCGMDSLSVRAMDTDTLTQVKEKILEAFCKNVPYSQWPRAEDVDLEWFASVAQSYILRDLDDTSVVEDGRKKLNTLAHYKIPEGASLAMSLIDKKDNTLGRVKDLDTEKYFHLVL
B7: IgG L:G68W; V domains shown; VH QVQLVQSGAEVKKPGASVKVSCKASGYTFTNYGLSWVRQAPGQGLEWMGWISANNGDTNYGQEFQGRVTMTTDTSTSTAYMELRSLRSDDTAVYYCARDSSSSWARWFFDLWGRGTLVTVSS; VL SYVLTQPPSVSVAPGKTARITCGGNIIGSKLVHWYQQKPGQAPVLVIYDDGDRPSGIPERFSGSNSWNTATLTISRVEAGDEADYYCQVWDTGSDPVVFGGGTKLTVL
B8: Cacna1c 1647-1777 (Mus musculus, UniProt Q01815); sequence looked up; chain NALSLQAGLRTLHDIGPEIRRAISGDLTAEEELDKAMKEAVSAASEDDIFRRAGGLFGNHVTYYQSDSRGNFPQTFATQRPLHINKTGNNQADTESPSHEKLVDSTFTPSSYSSTGSNANINNANNTALGR
B9: Xrs2 1-325 (Saccharomyces cerevisiae, UniProt P33301); chain MWVVRYQNTLEDGSISFISCCLQAFKTYSIGRSSKNPLIIKNDKSISRQHITFKWEINNSSDLKHSSLCLVNKGKLTSLNKKFMKVGETFTINASDVLKSTIIELGTTPIRIEFEWINEVWNIPPHLTQFRTMLSEYGISTEISINDIPANLMISDYPKSEDNSIRELYALVSTIPMKKSRFLMELCNTLLPTSKTNLKFDEMWNDMISNPEYNVFDFDPNILLSKFMRLNNIRVLTTIKSEPRLSSLLRTFNINLFAFDNIDSLYKYVDSLEASTEYLILTTTDKKENGKILCTIKTMLTSIIDGTLSAVINMKGASSRTLDNG
B10: Pigr 19-135 (Mus musculus, UniProt O70570); sequence looked up; chain KSPIFGPQEVSSIEGDSVSITCYYPDTSVNRHTRKYWCRQGASGMCTTLISSNGYLSKEYSGRANLINFPENNTFVINIEQLTQDDTGSYKCGLGTSNRGLSFDVSLEVSQVPELPS
B11: ERN1 32-440 (Homo sapiens, UniProt O75460); chain LLFVSTLDGSLHAVSKRTGSIKWTLKEDPVLQVPTHVEEPAFLPDPNDGSLYTLGSKNNEGLTKLPFTIPELVQASPCRSSDGILYMGKKQDIWYVIDLLTGEKQQTLSSAFADSLCPSTSLLYLGRTEYTITMYDTKTRELRWNATYFDYAASLPEDDVDYKMSHFVSNGDGLVVTVDSESGDVLWIQNYASPVVAFYVWQREGLRKVMHINVAVETLRYLTFMSGEVGRITKWKYPFPKETEAKSKLTPTLYVGKYSTSLYASPSMVHEGVAVVPRGSTLPLLEGPQTDGVTIGDKGECVITPSTDVKFDPGLKSKNKLNYLRNYWLLIGHHETPLSASTKMLERFPNNLPKHRENVIPADSEKKSFEEVINLVDQTSENAPTTVSRDVEEKPAHAPARPEAPVDSM
B12: CFH domains 1108-1231 L1189R (Homo sapiens, UniProt P08603); sequence looked up; chain KCGPPPPIDNGDITSFPLSVYAPASSVEYQCQNLYQLEGNKRITCRNGQWSEPPKCLHPCVISREIMENYNIALRWTAKQKRYSRTGESVEFVCKRGYRLSSRSHTLRTTCWDGKLEYPTCAKR
B13: BIK (Homo sapiens, UniProt Q13323); chain MSEVRPLSRDILMETLLYEQLLEPPTMEVLGMTDSEEDLDPMEDFDSLECMEGSDALALRLACIGDEMDVSLRAPRLAQLSEVAMHSLGLAFIYDQTEDIRDVLRSFMDGFTTLKENIMRFWRSPNPGSWVSCEQVLLALLLLLALLLPLLSGGLHLLLK
Sequence of UniProt P54609 (whole entry, looked up): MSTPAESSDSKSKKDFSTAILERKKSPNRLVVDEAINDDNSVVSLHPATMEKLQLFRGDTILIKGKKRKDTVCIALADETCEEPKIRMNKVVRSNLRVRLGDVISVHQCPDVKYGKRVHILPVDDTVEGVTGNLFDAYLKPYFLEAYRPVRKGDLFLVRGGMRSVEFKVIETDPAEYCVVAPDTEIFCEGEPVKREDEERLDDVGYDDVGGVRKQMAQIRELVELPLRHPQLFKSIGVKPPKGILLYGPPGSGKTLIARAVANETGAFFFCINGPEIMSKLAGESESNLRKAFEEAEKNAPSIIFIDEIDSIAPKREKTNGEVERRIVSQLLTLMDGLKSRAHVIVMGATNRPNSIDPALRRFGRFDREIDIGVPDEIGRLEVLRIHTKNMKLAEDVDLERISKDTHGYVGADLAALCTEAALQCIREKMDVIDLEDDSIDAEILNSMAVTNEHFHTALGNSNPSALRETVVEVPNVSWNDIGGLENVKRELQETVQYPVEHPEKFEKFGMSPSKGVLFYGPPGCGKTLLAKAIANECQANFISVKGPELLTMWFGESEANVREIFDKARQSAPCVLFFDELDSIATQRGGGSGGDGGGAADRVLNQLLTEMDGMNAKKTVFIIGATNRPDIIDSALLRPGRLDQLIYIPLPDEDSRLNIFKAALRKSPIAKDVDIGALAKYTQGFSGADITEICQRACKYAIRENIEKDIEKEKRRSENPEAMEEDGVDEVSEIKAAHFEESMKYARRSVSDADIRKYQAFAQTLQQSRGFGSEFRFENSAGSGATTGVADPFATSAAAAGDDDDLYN
Sequence of UniProt Q14676 (whole entry, looked up): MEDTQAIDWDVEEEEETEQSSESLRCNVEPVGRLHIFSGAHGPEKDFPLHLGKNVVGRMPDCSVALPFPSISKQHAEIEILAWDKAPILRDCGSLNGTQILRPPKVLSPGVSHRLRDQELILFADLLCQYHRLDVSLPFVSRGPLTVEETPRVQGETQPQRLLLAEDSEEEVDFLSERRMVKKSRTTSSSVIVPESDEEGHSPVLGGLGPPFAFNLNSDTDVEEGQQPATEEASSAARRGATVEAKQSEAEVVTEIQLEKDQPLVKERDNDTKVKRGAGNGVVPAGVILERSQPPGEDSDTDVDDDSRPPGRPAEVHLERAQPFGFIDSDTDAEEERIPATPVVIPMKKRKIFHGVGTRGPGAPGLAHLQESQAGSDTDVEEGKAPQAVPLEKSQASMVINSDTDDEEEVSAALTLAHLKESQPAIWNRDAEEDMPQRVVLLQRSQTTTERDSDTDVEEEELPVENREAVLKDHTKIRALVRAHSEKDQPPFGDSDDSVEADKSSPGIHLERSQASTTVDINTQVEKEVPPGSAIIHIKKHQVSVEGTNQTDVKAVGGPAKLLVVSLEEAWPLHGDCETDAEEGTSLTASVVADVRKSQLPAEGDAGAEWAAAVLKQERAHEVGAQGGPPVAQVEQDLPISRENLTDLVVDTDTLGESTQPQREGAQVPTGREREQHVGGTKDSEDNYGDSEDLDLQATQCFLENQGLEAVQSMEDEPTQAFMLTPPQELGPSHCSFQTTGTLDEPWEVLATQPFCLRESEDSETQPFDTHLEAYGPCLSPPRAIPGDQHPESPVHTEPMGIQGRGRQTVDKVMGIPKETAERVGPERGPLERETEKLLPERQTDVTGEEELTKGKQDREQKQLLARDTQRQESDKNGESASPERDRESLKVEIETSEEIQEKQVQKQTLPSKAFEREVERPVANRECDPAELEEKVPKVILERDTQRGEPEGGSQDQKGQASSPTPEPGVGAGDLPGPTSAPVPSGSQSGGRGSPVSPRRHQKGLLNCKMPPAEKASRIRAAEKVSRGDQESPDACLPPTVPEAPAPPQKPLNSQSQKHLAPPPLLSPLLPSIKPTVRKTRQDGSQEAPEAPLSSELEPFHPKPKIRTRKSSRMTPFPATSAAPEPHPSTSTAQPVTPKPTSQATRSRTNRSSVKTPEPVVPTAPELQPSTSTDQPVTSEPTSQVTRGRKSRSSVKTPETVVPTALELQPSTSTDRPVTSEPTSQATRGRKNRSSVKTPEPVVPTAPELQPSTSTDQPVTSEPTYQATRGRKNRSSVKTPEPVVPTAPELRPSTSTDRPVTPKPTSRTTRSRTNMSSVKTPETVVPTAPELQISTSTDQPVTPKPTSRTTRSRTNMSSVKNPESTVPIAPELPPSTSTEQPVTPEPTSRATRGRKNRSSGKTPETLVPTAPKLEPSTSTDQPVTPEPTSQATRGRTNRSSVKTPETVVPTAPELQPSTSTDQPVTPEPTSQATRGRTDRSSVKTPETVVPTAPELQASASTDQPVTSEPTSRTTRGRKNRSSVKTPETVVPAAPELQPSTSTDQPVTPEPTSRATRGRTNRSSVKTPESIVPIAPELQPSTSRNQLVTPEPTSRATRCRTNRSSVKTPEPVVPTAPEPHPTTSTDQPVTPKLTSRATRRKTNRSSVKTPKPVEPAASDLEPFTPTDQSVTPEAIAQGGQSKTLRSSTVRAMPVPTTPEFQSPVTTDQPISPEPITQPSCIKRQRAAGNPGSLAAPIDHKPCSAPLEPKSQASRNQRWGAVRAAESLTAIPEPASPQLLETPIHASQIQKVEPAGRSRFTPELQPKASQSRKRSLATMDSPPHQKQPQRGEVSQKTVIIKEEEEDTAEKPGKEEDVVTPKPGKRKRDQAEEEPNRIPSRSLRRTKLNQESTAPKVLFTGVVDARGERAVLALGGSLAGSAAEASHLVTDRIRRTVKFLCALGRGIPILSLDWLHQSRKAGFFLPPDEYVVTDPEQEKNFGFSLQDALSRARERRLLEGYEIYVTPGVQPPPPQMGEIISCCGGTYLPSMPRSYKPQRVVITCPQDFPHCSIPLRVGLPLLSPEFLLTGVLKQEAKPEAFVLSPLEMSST
Sequence of UniProt P09429 (whole entry, looked up): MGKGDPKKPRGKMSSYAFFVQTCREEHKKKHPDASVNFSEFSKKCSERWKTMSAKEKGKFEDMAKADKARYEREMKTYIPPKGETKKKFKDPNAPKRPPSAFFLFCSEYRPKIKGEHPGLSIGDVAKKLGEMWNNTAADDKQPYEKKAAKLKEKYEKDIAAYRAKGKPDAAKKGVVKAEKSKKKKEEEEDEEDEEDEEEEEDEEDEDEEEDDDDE
Sequence of UniProt P25963 (whole entry, looked up): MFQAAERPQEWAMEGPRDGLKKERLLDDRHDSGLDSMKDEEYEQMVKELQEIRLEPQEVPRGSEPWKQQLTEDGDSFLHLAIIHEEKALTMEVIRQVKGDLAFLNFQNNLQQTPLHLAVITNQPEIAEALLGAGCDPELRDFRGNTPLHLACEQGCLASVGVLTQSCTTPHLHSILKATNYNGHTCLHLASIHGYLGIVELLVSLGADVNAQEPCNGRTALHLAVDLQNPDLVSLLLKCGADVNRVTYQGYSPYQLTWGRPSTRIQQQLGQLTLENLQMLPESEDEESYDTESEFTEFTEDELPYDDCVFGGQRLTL

Substance | target or system | assay | system | setting | how to read | quantity | result
ENAH EVH1 domain (Homo sapiens) | DSCAM peptide (Homo sapiens) | BLI | – | – | – | Kd | > 150 µM
B1 (UBP10) | HTA1/HTB1 H2A/H2B heterodimer 2-132 (Saccharomyces cerevisiae) | ITC | – | – | – | Kd | 0.267 ± 0.163 µM
GGWVEKETYY | human SCRIB PDZ3-4 tandem (MBP fusion) | automated holdup | peptide, purified PDZ protein | concentration not given, unit not given | reference: biotin control resin, higher = stronger binding | binding intensity | -0.00221
PRPRPRPRPRPRPRPRPRPRPRPRPRPRPRPRPRPRPRPR ((PR)20 20 repeats; TAMRA label N-terminal) | FUS 267-526 (Homo sapiens, UniProt P35637) | fluorescence polarisation | peptide | – | – | Kd | 0.102 ± 0.0131 µM
GSGAGKESYV | human MAGI1-2/6 PDZ construct (MBP fusion) | automated holdup | peptide, crude extract | concentration not given, corrected by standard peak, unit not given | reference: biotin control resin, higher = stronger binding | binding intensity | 0.23
HMGB1 (Homo sapiens, UniProt P09429) | TLR4/LY96 complex (Homo sapiens) | SPR | – | – | – | Kd | 0.299 µM
PYIL (neurotensin C-terminal 160-163 (PYIL)) | SORT1 fragment (Homo sapiens) | SPR | peptide | – | – | Kd | 0.138 µM
B2 (CFH domains 1108-1231 R1210C) | C3 | SPR | – | – | – | Kd | 5.3 ± 0.2 µM
B3 (C1S 438-688 S632A) | SERPING1 111-500 Q361A/N362A (Homo sapiens, UniProt P05155) | SPR | – | with: Ca2+ | – | Kd | 21.6 µM
H2AX/H2B/H3/H4 nucleosome core particle, pS139 (Homo sapiens) | MDC1 BRCT 1891-2089 (Homo sapiens, UniProt Q14676) | MST | – | – | – | Kd | 0.0332 ± 0.0013 µM
B4 (SSC1/SSC3 chimeric SBD) | GOT2 mitochondrial targeting sequence, fluorescein label on cysteine (Gallus gallus) | fluorescence polarization | – | – | – | Kd | 20.8 ± 0.983 µM
B5 (PUX6 269-435) | CDC48A 1-463 (Arabidopsis thaliana, UniProt P54609) | ITC | – | 10 °C | – | Kd | 9.5 ± 0.9 µM
B6 (PLXND1 1553-1678 S1614V/T1615A) | RND1 5-200 (Homo sapiens, UniProt Q92730) | SPR | – | – | – | Kd | 4.78 ± 0.08 µM
B7 (IgG L:G68W) | IL13 fragment (Homo sapiens) | SPR | antibody | – | – | Kd | 9e-05 µM
KLLITIHDRKEFAKFEEERARAKWDTANNPLAKEATSTFTNITYRGT (ITGB3 742-788 Y747A (Homo sapiens, UniProt P05106); sequence looked up) | Tln1 309-405 (Mus musculus, UniProt P26039) | NMR titration | – | – | – | Kd | 1320 µM
B8 (Cacna1c 1647-1777) | Jph2 1-440 S165W (Mus musculus, UniProt Q9ET78) | ITC | – | – | – | Kd | 6.1 µM
B9 (Xrs2 1-325) | Sae2 phosphopeptide, pT5, N-terminal FAM (Saccharomyces cerevisiae) | fluorescence polarization | – | – | – | Kd | 2.3 µM
rituximab IgG | CD20 peptide fragment, cyclic/C-terminal amide | BLI | – | – | – | Kd | 2.21 µM
LPDTDDRHRIEEKRKRTYETFKSIAKKSPFNGP (Rela 289-321 M313A (Mus musculus, UniProt Q04207); sequence looked up) | NFKBIA 67-206 (Homo sapiens, UniProt P25963) | ITC | peptide | – | – | Kd | 0.97 ± 0.05 µM
B10 (Pigr 19-135) | IgA Fc/J chain CH2-CH3 domains, dimeric 113-344 (Mus musculus) | SPR | – | – | – | Kd | 0.374 µM
GCVRLHESCLGQQVPCCDPAATCYCSGRGDNDLVCYCR (designed binder) | ITGAV/ITGB3 K562 cells | flow cytometry | designed binder, U87MG | – | – | Kd | 0.00089 µM
B11 (ERN1 32-440) | HSPA5 28-654 (Homo sapiens, UniProt P11021) | MST | – | – | – | Kd | 0.66 ± 0.12 µM
B12 (CFH domains 1108-1231 L1189R) | C3 | SPR | – | – | – | Kd | 2.4 ± 0.06 µM
B13 (BIK) | BCL2L1 (Homo sapiens, UniProt Q07817-1) | FRET or BRET | – | not purified | – | Kd | 8 µM
protein (Arabidopsis thaliana, UniProt Q9SJV0) | CDC48A (Arabidopsis thaliana, UniProt P54609) | ITC | – | with: AMPPNP | – | Kd | 3.1 µM
MMHVNNFPFRRHSWICFDVD (PDE4D 1-20; pS13) | AKAP6 P1400S (Homo sapiens, UniProt Q13023-1) | SPR | peptide | – | – | Kd | 2.7 µM
SCN2A fragment I1912A (Homo sapiens) (sequence not shown) | CALM1 (Homo sapiens, UniProt P0DP23) | fluorescence titration | – | with: CaCl2 | – | Kd | 19.6 µM
CALLLSAPRR (GOT2 (Gallus gallus); fluorescein label) | HSPA9 47-555 (Homo sapiens, UniProt P38646) | FP | peptide | – | – | Kd | 18.9 µM

Some of these lines once more:
Substance | target or system | assay | system | setting | how to read | quantity | result
protein (Arabidopsis thaliana, UniProt Q9SJV0) | CDC48A (Arabidopsis thaliana, UniProt P54609) | ITC | – | with: AMPPNP | – | Kd | 3.1 µM
MMHVNNFPFRRHSWICFDVD (PDE4D 1-20; pS13) | AKAP6 P1400S (Homo sapiens, UniProt Q13023-1) | SPR | peptide | – | – | Kd | 2.7 µM
SCN2A fragment I1912A (Homo sapiens) (sequence not shown) | CALM1 (Homo sapiens, UniProt P0DP23) | fluorescence titration | – | with: CaCl2 | – | Kd | 19.6 µM
CALLLSAPRR (GOT2 (Gallus gallus); fluorescein label) | HSPA9 47-555 (Homo sapiens, UniProt P38646) | FP | peptide | – | – | Kd | 18.9 µM
